Experimental data from different studies.
Each numbered part is a random draw from the data of one study; scales do not carry over between parts. Changes are numbered by the printed parent chain.

Sample 1 — technique: DHFR PCA, deep sequencing; sample: yeast; with: (+)-ABA 2500 µM; relative to: wild-type fitted maximum; direction: higher = stronger binding
Target: ABI1, truncated, D143A, DHFR fusion (Arabidopsis thaliana)
Setting: methotrexate growth selection, single substitutions
Parent: PYL1, truncated, DHFR fusion (Arabidopsis thaliana); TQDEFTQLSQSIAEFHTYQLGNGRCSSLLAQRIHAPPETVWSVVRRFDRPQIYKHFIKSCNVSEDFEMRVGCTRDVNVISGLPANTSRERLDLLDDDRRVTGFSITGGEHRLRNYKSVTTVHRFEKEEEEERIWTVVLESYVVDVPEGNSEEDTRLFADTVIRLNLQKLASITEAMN
For `V143M`, “relative binding score” read 93.3%.
`V43P`: “relative binding score” 26.3%.
Under “relative binding score”, `H55V` is recorded as 89.3%.
`S117T`: “relative binding score” 71.2%.
Under “relative binding score”, `D96F` is recorded as 80%.
For `E151K`, “relative binding score” read 93.4%.
For `R163A`, “relative binding score” read 84.6%.
`D48A` — result for “relative binding score”: 86.3%.
`L94N` — result for “relative binding score”: 81%.
`Y115E`: “relative binding score” -4.59%.
For `L93W`, “relative binding score” read 97.2%.
`R113N`: “relative binding score” 105%.
`S117V`: “relative binding score” 37.4%.

Sample 2 — technique: protein binding microarray; form: double-stranded DNA, one strand shown; sample: in vitro; concentration: not given; relative to: not given; direction: higher = stronger binding
Target: Histone acetyltransferase KAT6A, winged helix 2, GST fusion (KAT6A, Homo sapiens, UniProt Q92794, residues 85-181)
Setting: 8-mer, flanks averaged, mean of 2 arrays, mostly near background
Construct (chain): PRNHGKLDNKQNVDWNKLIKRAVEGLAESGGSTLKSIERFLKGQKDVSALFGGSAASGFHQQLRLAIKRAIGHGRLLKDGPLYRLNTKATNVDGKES
The E-score of `GTGGTTGA` is reported as -0.119.
`CCTTATCA` has an E-score of -0.0308.
`TGAGATAA` gave an E-score of -0.0643.
For `ATGGTGGA`, the E-score was -0.146.
With `AGCTATTA` the E-score was -0.134.
`AATCGGCA` has an E-score of 0.184.
For `ATAGGGAC`, the E-score was -0.0621.
`ATGGAGAA` gave an E-score of 0.0168.
For `CTAGAGAG`, the E-score was 0.0106.
With `ACGTATAA` the E-score was -0.156.
For `AATAGGCC`, the E-score was -0.0847.
`CGAAAGGC` has an E-score of 0.105.
`ACTACAAT` gave an E-score of -0.012.

Sample 3 — target: CCNA2, cyclin fold, Cln2 fusion (human); technique: yeast growth competition, sequencing; sample: yeast; setting: strong parent motif; relative to: not given; direction: higher = stronger binding
Parent: CDC6 docking peptide (human); TLKGRRLVFDNQL
`TLKGRELVFDNQL [R6E]` — result for “normalised enrichment score”: -0.833.
For `TLKGRRLVFGNQL [D10G]`, “normalised enrichment score” read 0.994.
Under “normalised enrichment score”, `TLKGRRLVFDNQH [L13H]` is recorded as 2.48.
`TLKGRRLVFDNQM [L13M]` — result for “normalised enrichment score”: 2.86.
`TLKGRRLVFDHQL [N11H]` — result for “normalised enrichment score”: 2.53.
Under “normalised enrichment score”, `ALKGRRLVFDNQL [T1A]` is recorded as 3.19.
For `TLKGRRQVFDNQL [L7Q]`, “normalised enrichment score” read 1.54.
Under “normalised enrichment score”, `TLSGRRLVFDNQL [K3S]` is recorded as 1.76.
`TLKGRVLVFDNQL [R6V]` — result for “normalised enrichment score”: 0.84.
For `TLKGRRLVFDNIL [Q12I]`, “normalised enrichment score” read 3.64.
For `TLKGRRLVFDNSL [Q12S]`, “normalised enrichment score” read 2.4.
`TDKGRRLVFDNQL [L2D]` — result for “normalised enrichment score”: 0.843.
For `TLKGRRHVFDNQL [L7H]`, “normalised enrichment score” read 0.848.

Other studies, line by line
`PhoQ, residues 284 288 289 292 302 303 SIHLQL` has a fold induction of 0.983 (PhoP, residues 12 14 15 18 19 YHFSH (Escherichia coli, UniProt P23836); Sort-seq, item: YFP reporter; E. coli; PhoQ-PhoP variant library, with: 10 µM Mg2+; relative to: high Mg2+ state, higher = stronger signaling).

For quick reference, copied from above (sample 3):
`TLKGRELVFDNQL [R6E]` — result for “normalised enrichment score”: -0.833.
Under “normalised enrichment score”, `TLKGRRLVFDNQH [L13H]` is recorded as 2.48.
For `TLKGRRQVFDNQL [L7Q]`, “normalised enrichment score” read 1.54.
For `TLKGRRHVFDNQL [L7H]`, “normalised enrichment score” read 0.848.
